Measured values pooled from the literature.
Each line is one published result; not all experiments were run side by side. Several values in a cell are separate wells, animals, samples, runs or records. ± marks the error that the study gave.
Sequence of UniProt Q9NRM7 (whole entry, looked up): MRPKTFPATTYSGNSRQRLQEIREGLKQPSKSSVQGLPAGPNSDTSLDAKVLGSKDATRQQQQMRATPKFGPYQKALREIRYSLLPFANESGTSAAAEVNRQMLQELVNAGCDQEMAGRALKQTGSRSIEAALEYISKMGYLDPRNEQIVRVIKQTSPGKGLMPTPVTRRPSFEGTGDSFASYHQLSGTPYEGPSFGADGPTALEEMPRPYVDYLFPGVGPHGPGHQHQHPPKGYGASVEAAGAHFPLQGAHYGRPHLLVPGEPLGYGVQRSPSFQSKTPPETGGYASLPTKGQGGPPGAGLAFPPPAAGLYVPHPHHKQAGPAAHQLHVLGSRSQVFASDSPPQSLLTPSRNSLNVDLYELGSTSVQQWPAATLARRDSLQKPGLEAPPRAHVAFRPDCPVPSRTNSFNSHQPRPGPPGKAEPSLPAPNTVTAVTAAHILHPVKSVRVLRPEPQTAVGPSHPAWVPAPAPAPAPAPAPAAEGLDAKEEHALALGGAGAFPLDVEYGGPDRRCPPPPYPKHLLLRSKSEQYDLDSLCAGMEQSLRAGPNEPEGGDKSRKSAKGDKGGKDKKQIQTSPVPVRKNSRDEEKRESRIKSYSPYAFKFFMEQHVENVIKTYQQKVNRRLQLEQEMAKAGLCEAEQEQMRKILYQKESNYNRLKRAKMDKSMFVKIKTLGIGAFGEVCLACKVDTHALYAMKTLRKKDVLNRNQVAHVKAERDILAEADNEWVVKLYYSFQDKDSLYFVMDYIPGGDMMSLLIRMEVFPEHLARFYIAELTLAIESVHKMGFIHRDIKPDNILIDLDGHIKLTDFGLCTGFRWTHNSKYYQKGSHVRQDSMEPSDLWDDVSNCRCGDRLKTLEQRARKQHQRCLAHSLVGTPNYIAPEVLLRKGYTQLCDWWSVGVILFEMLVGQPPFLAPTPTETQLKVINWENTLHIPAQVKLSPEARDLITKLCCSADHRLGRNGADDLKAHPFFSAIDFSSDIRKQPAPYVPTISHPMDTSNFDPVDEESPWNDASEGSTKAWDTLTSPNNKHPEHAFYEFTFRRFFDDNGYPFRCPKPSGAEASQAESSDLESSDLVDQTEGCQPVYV
Sequence of UniProt Q16539 (whole entry, looked up): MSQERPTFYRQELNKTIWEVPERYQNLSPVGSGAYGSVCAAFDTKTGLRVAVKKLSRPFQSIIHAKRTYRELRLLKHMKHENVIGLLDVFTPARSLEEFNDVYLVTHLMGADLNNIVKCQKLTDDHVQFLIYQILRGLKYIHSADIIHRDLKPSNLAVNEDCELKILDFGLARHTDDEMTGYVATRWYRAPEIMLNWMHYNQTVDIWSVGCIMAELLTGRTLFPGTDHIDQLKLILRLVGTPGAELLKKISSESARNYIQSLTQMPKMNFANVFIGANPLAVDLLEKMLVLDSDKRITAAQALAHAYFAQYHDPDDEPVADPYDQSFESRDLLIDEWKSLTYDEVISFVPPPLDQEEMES
Sequence of UniProt Q96PY6 (whole entry, looked up): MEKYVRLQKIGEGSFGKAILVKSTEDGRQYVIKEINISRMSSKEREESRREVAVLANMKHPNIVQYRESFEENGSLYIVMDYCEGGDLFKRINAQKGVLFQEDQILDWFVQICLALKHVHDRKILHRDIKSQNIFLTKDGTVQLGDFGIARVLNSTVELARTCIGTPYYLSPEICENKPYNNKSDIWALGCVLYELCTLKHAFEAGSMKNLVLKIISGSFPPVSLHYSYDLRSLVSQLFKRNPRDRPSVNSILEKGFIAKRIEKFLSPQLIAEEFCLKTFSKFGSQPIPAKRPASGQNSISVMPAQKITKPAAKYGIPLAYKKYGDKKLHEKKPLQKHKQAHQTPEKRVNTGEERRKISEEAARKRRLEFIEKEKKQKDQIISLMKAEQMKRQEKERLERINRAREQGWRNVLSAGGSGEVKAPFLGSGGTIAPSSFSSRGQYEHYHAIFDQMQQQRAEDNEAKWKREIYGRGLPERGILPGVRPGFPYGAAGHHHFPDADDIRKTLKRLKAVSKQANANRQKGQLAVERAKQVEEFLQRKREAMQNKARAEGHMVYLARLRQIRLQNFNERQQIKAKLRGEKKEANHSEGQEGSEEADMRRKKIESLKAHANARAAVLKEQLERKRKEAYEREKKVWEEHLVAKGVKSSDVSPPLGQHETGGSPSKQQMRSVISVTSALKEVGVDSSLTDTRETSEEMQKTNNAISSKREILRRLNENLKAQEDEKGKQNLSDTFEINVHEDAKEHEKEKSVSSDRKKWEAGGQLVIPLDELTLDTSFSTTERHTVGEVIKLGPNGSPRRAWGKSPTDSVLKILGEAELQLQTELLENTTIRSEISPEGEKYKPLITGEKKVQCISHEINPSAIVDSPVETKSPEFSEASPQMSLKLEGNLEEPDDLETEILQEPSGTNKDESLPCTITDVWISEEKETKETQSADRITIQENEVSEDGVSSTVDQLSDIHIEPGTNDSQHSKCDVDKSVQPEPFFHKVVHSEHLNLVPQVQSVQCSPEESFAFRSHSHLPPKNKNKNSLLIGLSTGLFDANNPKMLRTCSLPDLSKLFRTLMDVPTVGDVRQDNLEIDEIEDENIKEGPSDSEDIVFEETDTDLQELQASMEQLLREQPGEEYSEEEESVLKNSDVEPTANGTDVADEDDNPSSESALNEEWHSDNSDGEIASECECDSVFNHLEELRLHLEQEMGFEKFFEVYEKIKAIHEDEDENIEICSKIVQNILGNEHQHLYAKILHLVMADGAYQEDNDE

Under “supercoiled DNA form”, `[Cu+2].c1cnc2c(c1)c1nccnc1c1cccnc12.c1cnc2c(c1)c1nccnc1c1cccnc12` is recorded as 6% (oxidative DNA cleavage; supercoiled pUC19 DNA; 100 µM, 30 min, with: ascorbic acid 50 µM, DNA 40 µM).
`O=C1NC2(CC2)COc2ncc(F)cc2[C@H]2COCCN2c2ccn3ncc1c3n2` — result for “serum total protein”: 58.9 ± 4.8 g/L (Sprague-Dawley rat, male, serum; oral, 20 mg/kg/day, end of recovery, 4-week subacute toxicity).
`COC(=O)[C@H](CC(C)C)NC(=O)[C@@H]1CCCN1C(=O)[C@@H](NC(=O)[C@H](CCC(=O)C=[N+]=[N-])NC(=O)OCc1ccccc1)C(C)C` — result for membrane potential: “no effect” (safranine O; isolated mouse brain mitochondria; 0.02 mM, with: ATP 2 mM).
`Cc1cc(C(=O)Nc2nc3cccc(C)c3n2[C@H]2CCCCN(C(=O)/C=C/CN(C)C)C2)ccn1` gave a survival of 83.3% (Trypanosoma brucei; STIB795, mouse acute HAT model; oral, 25 mg/kg once daily for 4 days, day 14; baseline: mice).
`CC(C)[C@H]1NC(=O)C[C@H]2/C=C/CCSSC[C@@H](NC1=O)C(=O)N[C@H](Cc1cccc3ccccc13)C(=O)NCC(=O)O2` has an inhibition of -0.443% (LATS2 (Homo sapiens, UniProt Q9NRM7); enzyme activity, inhibitor; 10 µM).
For `C(=N\Cc1cc(C/N=C/c2cccs2)cc(-c2cc(C/N=C/c3cccs3)cc(C/N=C/c3cccs3)c2)c1)/c1cccs1`, IL-18 level read “decreased” (hACE2 mice, bronchoalveolar lavage fluid; dose not given; baseline: control).
For `CCc1nnc(-c2c(OC)cc(-c3cnc4cc(-c5cnn(C)c5)ccn34)cc2OC)o1`, “osteoclast surface/bone surface” read 16.5 ± 1.42% (histomorphometry; male C57BL/6J mouse, tibia; oral gavage, 10 mg/kg once daily, 3 wk).
`CCCCCCCCCCCC1CC(=O)NC(CC(N)=O)C(=O)NC(Cc2ccc(O)cc2)C(=O)NC(CC(N)=O)C(=O)NC(CCC(N)=O)C(=O)N2CCCC2C(=O)NC(CC(N)=O)C(=O)NC(CO)C(=O)N1` (stereo not shown) has a maximum fusion of 48 ± 10% (calcein leakage; DOPC/DOPG/CHOL liposomes; concentration not given, with: 40 mM CaCl2).
The cytokine level of `CC(C)C[C@@H]1NC(=O)[C@@H](Cc2c[nH]c3ccccc23)NC(=O)[C@H](CCCNC(=N)N)NC(=O)[C@@H](CCC(=O)O)NC(=O)[C@H](CCC(N)=O)NC(=O)[C@@H](CCC(=O)O)NC(=O)[C@H](CCCNC(=N)N)NC(=O)[C@@H](Cc2c[nH]c3ccccc23)NC1=O` is reported as 55 ± 16 pg/g tissue (Luminex, refers to: IL-17; LDLr-/- mice, Western diet, liver; dose not given, 4 weeks).
`CCCC[C@@H]1NC(=O)[C@H](Cc2ccc(O)cc2)NC(=O)[C@@H]2CCCN2C(=O)[C@H](CC(=O)O)NC(=O)[C@H](C)NC(=O)[C@H](Cc2ccccc2)NC(=O)[C@@H]2CSCCC(=O)N3CN(CN(C3)C(=O)CCSC[C@@H](C(=O)N[C@@H](C)C(N)=O)NC1=O)C(=O)CCSC[C@H](NC(C)=O)C(=O)N[C@@H](CC(C)(C)C)C(=O)N1CCC[C@H]1C(=O)N[C@@H](CCC(=O)O)C(=O)N[C@H](CCCCNC(=O)CCc1cn(CCOCCOCCOCCN(CCOCCOCCOCCC(=O)N[C@H]3CSCCC(=O)N4CN5CN(C4)C(=O)CCSC[C@H](NC(=O)[C@@H](CC(=O)O)NC(=O)[C@H](Cc4cccc6ccccc46)NC(=O)[C@@H]4CCCN4C3=O)C(=O)N[C@@H](CCSC)C(=O)N[C@@H](CCCCNC(=N)N)C(=O)N[C@@H](CC(=O)O)C(=O)N[C@@H](Cc3c[nH]c4ccccc34)C(=O)N[C@@H](CO)C(=O)N[C@@H]([C@@H](C)O)C(=O)N3CCC[C@H]3C(=O)N3C[C@H](O)C[C@H]3C(=O)N[C@@H](Cc3c[nH]c4ccccc34)C(=O)N[C@H](C(N)=O)CSCCC5=O)CCOCCOCCOCCn3cc(CCC(=O)NCCCC[C@H]4NC(=O)[C@H](CCC(=O)O)NC(=O)[C@@H]5CCCN5C(=O)[C@H](CC(C)(C)C)NC(=O)[C@@H](NC(C)=O)CSCCC(=O)N5CN6CN(C5)C(=O)CCSC[C@H](NC(=O)[C@H](Cc5ccc(O)cc5)NC(=O)[C@@H]5CCCN5C4=O)C(=O)N[C@@H](Cc4ccccc4)C(=O)N[C@@H](C)C(=O)N[C@@H](CC(=O)O)C(=O)N4CCC[C@H]4C(=O)N[C@@H](Cc4ccc(O)cc4)C(=O)N[C@@H](CCCC)C(=O)N[C@H](C(=O)N[C@@H](C)C(N)=O)CSCCC6=O)nn3)nn1)C(=O)N1CCC[C@H]1C(=O)N[C@@H](Cc1ccc(O)cc1)C(=O)N2` gave a mRNA level of 2.03 (NanoString, refers to: Bst1-mRNA; mouse bearing MC38-Nectin-4 tumour, circulating white blood cells; 5 mg/kg, 24 h after dosing, unit not given; baseline: vehicle).
The relative abundance of `COc1ccccc1-c1n[nH]c2nc(NC3CCN(C(=O)Cc4ccc(F)cc4F)CC3)ncc12` is reported as 0.94 (bead binding, competition bead pull-down, refers to: LINJ.35.4500; Leishmania donovani axenic amastigote extract; 10 µM; baseline: vehicle).
With `CC(C)(C)C(=O)OCOP(=O)(OCOC(=O)C(C)(C)C)C1CCCN(O)C1=O` (stereo not shown) the log LC50 was over -4 log M (UACC-257).
With `CC(C)[C@@H]1NC(=O)[C@@H]2CCCN2C(=O)[C@@H](C(C)C)NC(=O)[C@H]2CCCN2C(=O)[C@H](C(C)C)NC(=O)[C@@H]2CCCN2C(=O)[C@@H](C(C)C)NC(=O)[C@H]2CCCN2C(=O)[C@H](C(C)C)NC(=O)[C@@H]2CCCN2C(=O)[C@@H](C(C)C)NC(=O)[C@H]2CCCN2C1=O` the bi-ionic potential was -106 mV (sheep lipid bilayer; 10 µM, pH 7.4, 23 °C, with: 0.1 M K+ vs Li chloride).
`O=C(O)C(Cl)Cl.OCCN(CCO)CCO` gave a herbicidal inhibition of -28% (Eleusine indica; 15 mg/mL, 21 days, post-emergence, greenhouse).
`Cc1ccc(C2=CC(C)(C)Oc3ccc(-c4ccc(-c5ccc(C(=O)O)cc5)[nH]4)cc32)cc1` has a testis weight of 0.116 g and 0.095 g and 0.088 g and 0.0987 g and 0.0915 g (CD1 mouse, male; 20 mg/kg, 4 weeks after treatment, dosed for 2 weeks).
With `CS(C)(=O)=Nc1ccc(-c2ccc(-c3nc4cc(O[C@@H]5CO[C@H]6[C@@H]5OC[C@H]6O)[nH]c4cc3F)cc2)cc1` the inhibition was 2% (MAPK14 (Homo sapiens, UniProt Q16539); enzyme activity, inhibitor; 10 µM).
For `CCN(Cc1ccccc1)C(=O)CCc1nc(CN2CCN(C(=O)Cc3ccc(OC)c(OC)c3)CC2)no1`, “resting membrane potential” read -59.4 ± 2.15 mV (current clamp; DRG neurons, naive rat; 10 µM).
`COc1ccccc1-c1n[nH]c2nc(N[C@H]3CC[C@H](NS(=O)(=O)CC(C)C)CC3)ncc12` has a relative abundance of 0.87 (bead binding, competition bead pull-down, refers to: LINJ.29.1250; Leishmania donovani extract; 10 µM; baseline: vehicle).
The Ke of `Cc1cc(O)cc(C)c1C[C@H](N)C(=O)N[C@H](CCCNC(=N)N)C(=O)N[C@@H](Cc1ccccc1)C(=O)N[C@@H](CCCCN)C(=O)NCCCCCCCCCCCCNC(=O)[C@H](Cc1ccccc1)NC(=O)[C@H](CC1CCCCC1)NC[C@@H]1Cc2ccccc2CN1C(=O)[C@@H](N)Cc1ccc(O)cc1` is reported as 7.65 ± 0.08 µM (µ-opioid receptor antagonism, antagonist; guinea pig ileum).
With `O=C(O)c1ccc(-c2nc(-c3ccccc3Cl)c3sccn23)cc1` the reticulocytes was 1.9% and 1.89% and 1.62% and 1.74% (C57BL/6 mice, 5-fluorouracil treated; dose not given, day -3; baseline: RBC).
With `CN(C)[C@H]1C[C@@]23CC[C@@]4(O2)C(=CC[C@]2(C)[C@@H](c5ccc6ccncc6c5)CC[C@H]24)C=C3[C@@H](O)[C@@H]1O` the inhibition was 2.5% (NEK1 (Homo sapiens, UniProt Q96PY6); ATP probe labelling, inhibitor, KiNativ profiling; 1 µM).
For `Cc1ccc(S(=O)(=O)N2CC2C(=O)N(C)C)cc1` (stereo not shown), the tumour volume was 1120 mm3 (mouse, Lewis lung carcinoma; intraperitoneal, 170 mg/kg, 16 doses, day 16).

For quick reference, copied from above:
`O=C1NC2(CC2)COc2ncc(F)cc2[C@H]2COCCN2c2ccn3ncc1c3n2` — result for “serum total protein”: 58.9 ± 4.8 g/L (Sprague-Dawley rat, male, serum; oral, 20 mg/kg/day, end of recovery, 4-week subacute toxicity).
`COC(=O)[C@H](CC(C)C)NC(=O)[C@@H]1CCCN1C(=O)[C@@H](NC(=O)[C@H](CCC(=O)C=[N+]=[N-])NC(=O)OCc1ccccc1)C(C)C` — result for membrane potential: “no effect” (safranine O; isolated mouse brain mitochondria; 0.02 mM, with: ATP 2 mM).
